{"data": "Results collected from several papers", "note": "A part holds a random share of what one study measured. Changes are numbered by the printed parent chain."}
{"data": "Block 1", "target": "inorganic phosphate, free oxyanion", "method": "microfluidic competitive inhibition", "sample": "in vitro, cell-free expressed", "concentration": "not given", "setting": "derived from inhibition constants, unchanged parent 615000 nM", "direction": "lower = stronger binding", "starting sequence": "PafA, mature enzyme, eGFP fusion (Elizabethkingia meningoseptica, UniProt Q9KJX5); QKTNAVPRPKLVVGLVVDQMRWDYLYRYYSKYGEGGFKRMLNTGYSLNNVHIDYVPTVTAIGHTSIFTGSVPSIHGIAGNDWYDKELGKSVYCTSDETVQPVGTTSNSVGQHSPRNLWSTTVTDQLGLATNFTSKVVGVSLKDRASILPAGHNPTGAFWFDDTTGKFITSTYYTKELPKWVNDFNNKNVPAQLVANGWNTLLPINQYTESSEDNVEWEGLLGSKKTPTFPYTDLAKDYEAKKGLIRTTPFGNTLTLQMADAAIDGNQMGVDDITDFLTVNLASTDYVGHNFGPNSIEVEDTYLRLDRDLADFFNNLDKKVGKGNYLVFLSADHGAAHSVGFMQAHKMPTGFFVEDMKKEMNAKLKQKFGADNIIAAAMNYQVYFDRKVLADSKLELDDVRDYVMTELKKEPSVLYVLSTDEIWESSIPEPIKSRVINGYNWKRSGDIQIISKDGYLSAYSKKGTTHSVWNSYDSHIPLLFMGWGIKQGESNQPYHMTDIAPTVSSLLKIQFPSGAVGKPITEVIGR"}
{"Substitution": "V71A", "phosphate dissociation constant": "468 µM"}
{"Substitution": "P230G", "phosphate dissociation constant": "514 µM"}
{"Substitution": "D271G", "phosphate dissociation constant": "552 µM"}
{"Substitution": "A515V", "phosphate dissociation constant": "645 µM"}
{"Substitution": "A458V", "phosphate dissociation constant": "674 µM"}
{"Substitution": "E239V", "phosphate dissociation constant": "577 µM"}
{"data": "Block 2", "target": "CCNB2, cyclin fold, Cln2 fusion (human)", "method": "yeast growth competition, sequencing", "sample": "yeast", "setting": "weak parent motif", "reference": "not given", "direction": "higher = stronger binding", "starting sequence": "viral docking peptide; KKVKRRLFETREL; partner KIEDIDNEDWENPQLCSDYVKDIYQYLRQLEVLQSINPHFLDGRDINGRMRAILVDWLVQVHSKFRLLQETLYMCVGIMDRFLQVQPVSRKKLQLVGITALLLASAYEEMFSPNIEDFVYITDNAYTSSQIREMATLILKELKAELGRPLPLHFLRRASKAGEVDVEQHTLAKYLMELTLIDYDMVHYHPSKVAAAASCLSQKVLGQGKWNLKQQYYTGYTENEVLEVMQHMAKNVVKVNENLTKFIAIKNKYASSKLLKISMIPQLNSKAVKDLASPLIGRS"}
{"Substitution": "R6A", "normalised enrichment score": 0.692}
{"Substitution": "E12A", "normalised enrichment score": 1.06}
{"Substitution": "L7A", "normalised enrichment score": 1.17}
{"Substitution": "R5K F8L", "normalised enrichment score": 0.714}
{"Substitution": "E9A", "normalised enrichment score": 0.401}
{"Substitution": "K1A", "normalised enrichment score": 0.781}
{"Substitution": "K2A", "normalised enrichment score": 0.642}
{"data": "Block 3", "target": "UDP-N-acetylglucosamine--peptide N-acetylglucosaminyltransferase 110 kDa subunit (OGT, Homo sapiens, UniProt O15294)", "effect on": "binding", "method": "phage display NGS", "form": "peptide", "setting": "panning round 2", "reference": "input library", "Target sequence (O15294 1-1046)": "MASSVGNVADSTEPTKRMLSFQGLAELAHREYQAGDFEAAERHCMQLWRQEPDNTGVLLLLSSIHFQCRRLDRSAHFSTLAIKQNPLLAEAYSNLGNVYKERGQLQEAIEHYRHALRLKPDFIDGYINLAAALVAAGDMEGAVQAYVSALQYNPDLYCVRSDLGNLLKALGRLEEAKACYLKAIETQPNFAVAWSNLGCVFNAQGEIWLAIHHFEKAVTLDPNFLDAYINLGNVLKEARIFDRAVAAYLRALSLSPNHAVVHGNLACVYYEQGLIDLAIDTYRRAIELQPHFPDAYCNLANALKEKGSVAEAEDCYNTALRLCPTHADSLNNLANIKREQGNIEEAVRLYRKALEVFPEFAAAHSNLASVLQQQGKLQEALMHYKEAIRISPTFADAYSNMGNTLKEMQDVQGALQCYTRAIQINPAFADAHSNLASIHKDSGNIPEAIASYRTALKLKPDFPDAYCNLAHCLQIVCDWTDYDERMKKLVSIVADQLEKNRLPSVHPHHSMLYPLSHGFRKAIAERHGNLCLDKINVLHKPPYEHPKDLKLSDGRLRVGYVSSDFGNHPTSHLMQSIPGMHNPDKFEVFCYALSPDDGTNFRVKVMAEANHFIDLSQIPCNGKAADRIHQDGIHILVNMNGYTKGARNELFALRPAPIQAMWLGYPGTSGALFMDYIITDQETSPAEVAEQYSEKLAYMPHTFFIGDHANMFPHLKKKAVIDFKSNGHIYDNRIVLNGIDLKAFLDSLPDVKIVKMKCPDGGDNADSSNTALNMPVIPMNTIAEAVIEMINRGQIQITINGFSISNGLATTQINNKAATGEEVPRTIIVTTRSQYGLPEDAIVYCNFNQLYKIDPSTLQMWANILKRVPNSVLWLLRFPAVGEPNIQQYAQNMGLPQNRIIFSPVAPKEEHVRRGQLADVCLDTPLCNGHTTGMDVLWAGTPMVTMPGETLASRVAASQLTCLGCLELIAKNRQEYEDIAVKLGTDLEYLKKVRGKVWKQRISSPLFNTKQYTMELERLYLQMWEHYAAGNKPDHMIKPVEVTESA"}
{"Molecule": "VVESMFMPEYQIVPV", "minimum log2 enrichment ratio": 3.05}
{"Molecule": "WFPHQAHRADIISA", "minimum log2 enrichment ratio": 1.44}
{"Molecule": "SIGHEQGYTYYHTHH", "minimum log2 enrichment ratio": 1.81}
{"Molecule": "TKFAPQYILEYSKVY", "minimum log2 enrichment ratio": 2.53}
{"Molecule": "MWFPPVYSIQYDLI", "minimum log2 enrichment ratio": 3.47}
{"Molecule": "WIRSPHQHGQIHRS", "minimum log2 enrichment ratio": 2.79}
{"data": "Single results of other studies", "method": "cross-linking MS"}
{"Molecule": "EXOC4 (Homo sapiens, UniProt Q96A65)", "partner": "EXOC2 (Homo sapiens, UniProt Q96KP1)", "test system": "cell fractions", "setting": "together with: DMTMM", "quantity": "cross-linked residues", "result": "K18 to E214"}
{"Molecule": "HNRNPA2B1 (Homo sapiens, UniProt P22626)", "partner": "HNRNPA3 (Homo sapiens, UniProt P51991)", "setting": "hits only", "quantity": "interaction screen", "result": "cross-linked"}
{"Molecule": "ALG11 (Homo sapiens, UniProt Q2TAA5)", "partner": "ACTRT2 (Homo sapiens, UniProt Q8TDY3)", "test system": "cell fractions", "setting": "together with: DMTMM", "quantity": "cross-linked residues", "result": "M1 to E226"}
{"Molecule": "FASTKD3 (Homo sapiens, UniProt Q14CZ7)", "partner": "FASTKD1 (Homo sapiens, UniProt Q53R41)", "test system": "cell fractions", "setting": "together with: DSSO", "quantity": "cross-linked residues", "result": "K481 to K482"}
{"note": "A few entries again (single results of other studies):"}
{"Molecule": "ALG11 (Homo sapiens, UniProt Q2TAA5)", "partner": "ACTRT2 (Homo sapiens, UniProt Q8TDY3)", "test system": "cell fractions", "setting": "together with: DMTMM", "quantity": "cross-linked residues", "result": "M1 to E226"}
{"Molecule": "HNRNPA2B1 (Homo sapiens, UniProt P22626)", "partner": "HNRNPA3 (Homo sapiens, UniProt P51991)", "setting": "hits only", "quantity": "interaction screen", "result": "cross-linked"}
